Measurements of several laboratories.
Numbered parts are unrelated; each lists some results of a single study.
Sequence of UniProt Q13283 (whole entry, looked up): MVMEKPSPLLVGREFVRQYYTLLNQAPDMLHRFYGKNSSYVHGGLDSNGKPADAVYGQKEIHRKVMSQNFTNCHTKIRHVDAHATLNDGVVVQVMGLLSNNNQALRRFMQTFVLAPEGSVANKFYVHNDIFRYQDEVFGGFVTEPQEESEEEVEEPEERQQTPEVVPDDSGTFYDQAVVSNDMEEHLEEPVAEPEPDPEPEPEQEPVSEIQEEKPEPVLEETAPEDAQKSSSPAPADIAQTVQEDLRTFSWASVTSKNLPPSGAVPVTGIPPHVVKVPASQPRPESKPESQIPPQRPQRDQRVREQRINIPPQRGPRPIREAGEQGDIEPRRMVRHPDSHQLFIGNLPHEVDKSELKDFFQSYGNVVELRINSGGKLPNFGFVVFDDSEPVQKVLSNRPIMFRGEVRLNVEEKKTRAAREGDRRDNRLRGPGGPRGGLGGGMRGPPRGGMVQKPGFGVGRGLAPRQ

Block 1
Target: Sal-like protein 4, full length isoform B (SALL4, Homo sapiens, UniProt Q9UJQ4-2, residues 1-616)
Method: universal PBM
Molecule type: double-stranded DNA, one strand shown
Sample: in vitro
Concentration: not given
Notes: 8-mer, flanks averaged, mean of replicates
Reading: higher = stronger binding
Quantity: E-score
CCACGCGA: -0.216
GGTTGGGA: -0.213
GAGACTAC: -0.0874
TCGGCTAA: -0.0885

Block 2
Target: Histone acetyltransferase KAT6A, winged helix 1, GST fusion (KAT6A, Homo sapiens, UniProt Q92794, residues 1-85)
Method: protein binding microarray
Molecule type: double-stranded DNA, one strand shown
Sample: in vitro
Concentration: not given
Notes: 8-mer, flanks averaged, mean of 2 arrays, mostly near background
Reference: not given
Reading: higher = stronger binding
Quantity: E-score
Target sequence (chain): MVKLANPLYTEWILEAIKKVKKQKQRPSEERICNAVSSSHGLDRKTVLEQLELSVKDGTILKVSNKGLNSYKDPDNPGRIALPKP
CAGATATG: -0.129
CTTCTGTC: -0.101
ACGCCAAG: -0.0817

Other studies, line by line
GGGAGUUCUACAGUCCGACGAUCUGGGAGGUGGAUUUUGUUUAUUUUUAUAGCUCAUUUCCAGGGGUGGGAAUUUUUUUUUAAUAUGUGUCAUGAAUAAAGUUGUUUUUGAAAUGGAAUUCUCGGGUGUCAAGG (7-deaza-guanosine replaces G)
log2 enrichment (Ras GTPase-activating protein-binding protein 1, full length (G3BP1, Homo sapiens, UniProt Q13283); RNA Bind-n-Seq; RNA, in vitro; 200 nM, whole 134-nt RNA, ends assumed, together with: 150 mM LiCl; reference: input library, higher = stronger binding): -0.195

PhoQ, residues 284 288 289 292 302 303 NLSRDF
fold induction (PhoP, residues 12 14 15 18 19 LYHSL (Escherichia coli, UniProt P23836); Sort-seq, measured: YFP reporter; E. coli; PhoQ-PhoP variant library, together with: 10 µM Mg2+; reference: high Mg2+ state, higher = stronger signaling): 0.525

Some of these lines once more (block 1):
CCACGCGA: -0.216
